Measurements collected from several papers.
Each line is one published result; not all experiments were run side by side. Values joined by “and” are separate records of one study, mostly repeats; a detail may differ. ± gives the spread as reported. ≈ marks a conversion by molar mass, not a printed value.
UniProt Q15759, sequence (whole entry, looked up): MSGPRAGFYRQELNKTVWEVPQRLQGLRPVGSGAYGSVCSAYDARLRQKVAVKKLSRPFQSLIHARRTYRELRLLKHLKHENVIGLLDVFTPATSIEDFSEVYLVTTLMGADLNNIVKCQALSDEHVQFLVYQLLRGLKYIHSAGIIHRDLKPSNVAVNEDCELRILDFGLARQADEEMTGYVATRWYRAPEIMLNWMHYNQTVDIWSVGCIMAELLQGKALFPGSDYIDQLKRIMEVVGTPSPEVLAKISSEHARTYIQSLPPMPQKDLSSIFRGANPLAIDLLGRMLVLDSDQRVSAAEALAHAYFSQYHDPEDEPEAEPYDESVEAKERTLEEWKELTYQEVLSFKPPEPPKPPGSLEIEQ
UniProt P49146, sequence (whole entry, looked up): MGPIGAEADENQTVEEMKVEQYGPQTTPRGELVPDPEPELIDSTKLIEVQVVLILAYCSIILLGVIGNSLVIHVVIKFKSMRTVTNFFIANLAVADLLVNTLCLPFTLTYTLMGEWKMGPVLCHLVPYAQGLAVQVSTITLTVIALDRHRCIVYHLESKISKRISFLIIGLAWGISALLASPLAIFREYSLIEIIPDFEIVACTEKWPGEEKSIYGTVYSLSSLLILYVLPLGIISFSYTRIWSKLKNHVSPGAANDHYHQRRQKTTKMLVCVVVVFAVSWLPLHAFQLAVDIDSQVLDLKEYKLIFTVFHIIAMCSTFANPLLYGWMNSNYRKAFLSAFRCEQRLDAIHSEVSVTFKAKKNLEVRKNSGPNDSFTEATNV

SMILES	target or system	test	system	conditions	how to read	quantity	result
CC[C@H](C)[C@@H]1NC(=O)[C@@H]2CCCN2C(=O)[C@H](CC(C)C)NC(=O)[C@H](CC(C)C)NC(=O)CNC(=O)[C@@H](NC(=O)[C@@H](NC(=O)[C@H](CC(=O)O)NC(=O)CNC(=O)[C@@H](NC(=O)[C@H](C)NC(=O)CNC(=O)[C@H](CCCCN)NC(=O)[C@H](CC(C)C)NC(=O)[C@H](CC(C)C)NC(=O)[C@H](CCCCN)NC(=O)CNC(=O)[C@@H](NC(=O)[C@@H](N)CC(C)C)C(C)C)C(C)C)C(C)C)CSSC[C@@H](C(=O)O)NC1=O	–	RNA-seq, refers to: mt-Nd3 mRNA	mouse traumatic brain injury, frontal cortex and hippocampus	dose not given	relative to: TBI plus compound vs TBI	log2 fold change	-2.9
C[C@H]1CN(c2n[nH]c3nc(N[C@H]4CC[C@H](NS(=O)(=O)CCC(F)(F)F)CC4)ncc23)CCO1	Mitogen-activated protein kinase 11 (MAPK11, Homo sapiens, UniProt Q15759)	Kinobeads competition	HEK293, K562, placenta lysate	0.032 µM, unit not given	relative to: vehicle	remaining binding	0.82
CP(=O)(O)CCCN	Plasmodium falciparum	–	HB3	–	–	IC50	2.51 µM
C[C@H]1O[C@@H](O[C@H]2CC[C@@]3(C)[C@@H](CC[C@]4(C)[C@@H]3C=C[C@]35OC[C@@]6(CCC(C)(C)C[C@H]63)[C@@H](O)C[C@]54C)[C@]2(C)CO)[C@H](O)[C@@H](O[C@@H]2O[C@H](CO)[C@@H](O)[C@H](O)[C@H]2O)[C@H]1O	–	refers to: CPT-1α	ethanol-fed mice, hepatic SIRT1 knockdown (AAV8-TBG-SIRT1), liver	dose not given, high dose, unit not given	relative to: AAV8-TBG-Null ethanol group	mRNA level	0.97 and 0.74 and 0.9 and 0.81 and 1.16
CC[C@H](C)[C@H](NC(=O)[C@H](Cc1ccccc1)NC(=O)[C@H](CCC(=O)O)NC(=O)[C@H](CCCNC(=N)N)NC(=O)[C@H](C)NC(=O)[C@H](C)NC(=O)[C@H](CCC(N)=O)NC(=O)[C@H](CCC(=O)O)NC(=O)[C@H](CCC(=O)O)NC(=O)[C@H](CC(C)C)NC(=O)[C@H](Cc1ccc(O)cc1)NC(=O)[C@H](CO)NC(=O)[C@H](CO)NC(=O)[C@@H](NC(=O)[C@H](CC(=O)O)NC(=O)[C@H](CO)NC(=O)[C@@H](NC(=O)[C@H](Cc1ccccc1)NC(=O)[C@@H](NC(=O)CNC(=O)[C@H](CCC(=O)O)NC(=O)[C@H](C)NC(=O)CCc1c[nH]cn1)[C@@H](C)O)[C@@H](C)O)C(C)C)C(=O)N[C@@H](C)C(=O)N[C@@H](Cc1c[nH]c2ccccc12)C(=O)N[C@@H](CC(C)C)C(=O)N[C@H](C(=O)N[C@@H](CCCNC(=N)N)C(=O)NCC(=O)N[C@@H](CCCNC(=N)N)C(=O)N[C@@H](CCCCNC(=O)COCCOCCNC(=O)COCCOCCNC(=O)CC[C@H](NC(=O)CCCCCCCCCCCCCCCCC(=O)O)C(=O)O)C(=O)NCC(=O)NCC(=O)N[C@@H](CO)C(=O)N[C@@H](CCCCNc1c(NCCCCCN(O)C(=O)CCC(=O)NCCCCCN(O)C(=O)CCC(=O)NCCCCCN(O)C(C)=O)c(=O)c1=O)C(=O)O)C(C)C [zirconium-89 labelled]	–	gamma counting	rat, skin of neck	subcutaneous, 3 nmol/kg, 168 h	–	tissue uptake	0.1 %ID/g
COc1cc(Nc2ncc(F)c(Nc3ccc4c(n3)NC(=O)C(C)(C)O4)n2)cc(OC)c1OC	Neuropeptide Y receptor type 2 (NPY2R, Homo sapiens, UniProt P49146)	–	–	–	–	IC50	> 10 µM
CO[C@H]1C[C@@H]2CC[C@@H](C)[C@@](O)(O2)C(=O)C(=O)N2CCCC[C@H]2C(=O)O[C@H]([C@H](C)C[C@@H]2CC[C@@H](OC(=O)NCCOCCOCCOCCOCCOCCOCCOCCOCCC(=O)N3CCc4cc(Cn5nc(-c6ccc7oc(N)nc7c6)c6c(N)ncnc65)ccc4C3)[C@H](OC)C2)C[C@@H](O)[C@H](C)/C=C(\C)[C@@H](O)[C@@H](OC)C(=O)[C@H](C)C[C@H](C)/C=C/C=C/C=C/1C	–	–	patients with advanced solid tumours	intravenous, 1.6 mg/3 mg weekly, any grade	–	incidence of Diarrhea TRAE	20%
CC1=C(O)C(=O)C=C2C1=CC=C1[C@@]2(C)CC[C@@]2(C)[C@@H]3C[C@](C)(C(=O)O)CC[C@]3(C)CC[C@]12C	–	video-EEG	Sprague-Dawley rat pups, multiple-hit infantile spasms model	i.p., 2 mg/kg, 2 to 4 h, CELA-2 arm	relative to: vehicle	spasm frequency	decreased
Nc1ccccc1C(=O)[O-].[Na+]	–	binding, MIDAS equilibrium dialysis LC-MS	A2AR-BRIL thermostabilized	concentration not given	relative to: no-protein control	log2 fold change	-0.199
Cc1ccc2cc(N3CCC4(O)C(=O)c5cc(C)c(C)cc5N=C34)ccc2n1 (stereo not shown)	–	methamphetamine place preference	mouse	intraperitoneal	–	lowest effective dose	0.5 mg/kg
C[C@@H](NC(=O)c1ccc(C#Cc2cccc(F)c2)cn1)C(C)(C)O	–	–	rat hippocampal CA3 slices	10 µM, 10 min, spontaneous epileptiform activity	relative to: baseline	population spike amplitude	106 ± 3.7%
O=c1cc(-c2ccc(O)cc2)oc2c([C@@H]3OC[C@H](O)[C@H](O)[C@H]3O)c(O)c([C@@H]3O[C@H](CO)[C@@H](O)[C@H](O)[C@H]3O)c(O)c12	–	refers to: phosphorylation	mice, cardiac CaMKII-δ overexpression (AAV9)	dose not given	–	CaMKII-δ activity	inhibited
CSCC[C@@H]1NC(=O)[C@H](Cc2c[nH]c3ccccc23)NC(=O)[C@@H](NC(=O)CCNC(=O)[C@H](CCC(N)=O)NC(=O)[C@@H]2CCCN2C(=O)[C@@H]2CCCN2C(=O)[C@H](CCCNC(=N)N)NC(=O)[C@H](CCCNC(=N)N)NC(=O)[C@H](CCCNC(=N)N)NC(=O)[C@H](CCC(N)=O)NC(=O)[C@H](CCCNC(=N)N)NC(=O)[C@H](CCCNC(=N)N)NC(=O)[C@H](CCCCN)NC(=O)[C@H](CCCCN)NC(=O)[C@H](CCCNC(=N)N)NC(=O)CN)CSSC[C@@H](C(=O)O)NC(=O)[C@H]([C@@H](C)O)NC(=O)CNC(=O)[C@H](CC(C)C)NC(=O)[C@H](Cc2c[nH]cn2)NC(=O)[C@H](CCCNC(=N)N)NC(=O)[C@@H]2CCCN2C(=O)[C@H](CO)NC1=O	–	immunohistochemistry, refers to: CSNK2A1	NCI-H226 xenograft mouse, tumour tissue	intravenous, 2 mg/kg, day 16	–	CK2α staining	0.095 ± 0.021 IOD/area
COc1cc(CCC[P+](c2ccccc2)(c2ccccc2)c2ccccc2)c(OC)c2c1OCO2.[I-]	NCI60 panel	SRB	–	–	–	mean Log10LC50	-4.19 log M
CC(C)C[C@H](NC(=O)[C@H](CCC1CCCCC1)NC(=O)[C@@H]1CCCN1C(=O)c1ccc(F)cc1)C(=O)NC(C)(C)C(=O)N[C@@H](CC(C)C)C(=O)N[C@@H](CC(C)C)C(=O)NC(C)(C)C(=O)NC(C)(C)C(=O)NCCC(=O)NC1(CN(C)C)CCC1	–	HPTS release from GUVs	PC/PG 7:3 GUVs	1 µM, complete leakage fraction	–	leakage	> 50% and ~50%
CS(=O)(=O)c1ccc(-c2nnc(/C=C/c3nnc(-c4ccc(C#N)cc4)o3)n2-c2ccccc2Cl)nc1	–	RNA-seq GSEA, refers to: HALLMARK_MYC_TARGETS_V1	organoids, small intestinal, Apc Q1405X, mouse	dose not given, knockout organoids	relative to: DMSO, direction not given	normalized enrichment score	-2.65
C[C@]1(CO)Cc2ncn(-c3ccc(C#N)c(Cl)c3)c2C(=O)O1	–	aldosterone synthesis, inhibitor, refers to: cortisol	healthy Japanese adults, urine	80 mg, 0-24 h at steady state, multiple rising dose	–	urinary excretion	74.7 mmol
CCCCC1(CCCC)CN(c2ccccc2)c2cc(SC)c(OCC(=O)N[C@@H](C(=O)NCC(=O)O)c3ccccc3)cc2S(=O)(=O)C1	–	refers to: HDL cholesterol	human, serum	15 mg once daily, day 5	–	serum HDL-C	42 mg/dL
CC1=C(C)C(=O)C(CCCCC#CCCCC#CCO)=C(C)C1=O	Plasmodium falciparum	–	W2	–	–	IC50	3.98 µM
Nc1ccc(O)c(C(=O)O)c1	–	–	mouse, DSS-induced colitis	oral, 100 mg/kg daily, day 8	–	body weight reduction	-16.1%
N=C(N)NCCC[C@H](NC(=O)CCCCCNC(=O)[C@H](CCCNC(=N)N)NC(=O)[C@H](CCCNC(=N)N)NC(=O)CCCCCNC(=O)[C@H](CCCNC(=N)N)NC(=O)[C@H](CCCNC(=N)N)NC(=O)CCCCCNC(=O)[C@H](CCCNC(=N)N)NC(=O)[C@H](CCCNC(=N)N)NC(=O)CCCCCNC(=O)[C@@H](N)CCCNC(=N)N)C(=O)NCCCCCC(=O)NCCC(=O)O	–	broth microdilution	ATCC 43300 resistant strain, Mueller-Hinton broth	–	–	MIC	24 µM (≈ 45.7 µg/mL)
C[C@]1(O)CC[C@@]2(C)[C@@H](CC[C@@H]3[C@@H]2CC[C@]2(C)[C@@H]([N+](=O)[O-])CC[C@@H]32)C1	–	–	male NIH Swiss mice	i.p., dose not given, 15 min before test, pentylenetetrazol seizure model	–	seizure protection	inactive

Repeated from above:
SMILES	target or system	test	system	conditions	how to read	quantity	result
CC[C@H](C)[C@H](NC(=O)[C@H](Cc1ccccc1)NC(=O)[C@H](CCC(=O)O)NC(=O)[C@H](CCCNC(=N)N)NC(=O)[C@H](C)NC(=O)[C@H](C)NC(=O)[C@H](CCC(N)=O)NC(=O)[C@H](CCC(=O)O)NC(=O)[C@H](CCC(=O)O)NC(=O)[C@H](CC(C)C)NC(=O)[C@H](Cc1ccc(O)cc1)NC(=O)[C@H](CO)NC(=O)[C@H](CO)NC(=O)[C@@H](NC(=O)[C@H](CC(=O)O)NC(=O)[C@H](CO)NC(=O)[C@@H](NC(=O)[C@H](Cc1ccccc1)NC(=O)[C@@H](NC(=O)CNC(=O)[C@H](CCC(=O)O)NC(=O)[C@H](C)NC(=O)CCc1c[nH]cn1)[C@@H](C)O)[C@@H](C)O)C(C)C)C(=O)N[C@@H](C)C(=O)N[C@@H](Cc1c[nH]c2ccccc12)C(=O)N[C@@H](CC(C)C)C(=O)N[C@H](C(=O)N[C@@H](CCCNC(=N)N)C(=O)NCC(=O)N[C@@H](CCCNC(=N)N)C(=O)N[C@@H](CCCCNC(=O)COCCOCCNC(=O)COCCOCCNC(=O)CC[C@H](NC(=O)CCCCCCCCCCCCCCCCC(=O)O)C(=O)O)C(=O)NCC(=O)NCC(=O)N[C@@H](CO)C(=O)N[C@@H](CCCCNc1c(NCCCCCN(O)C(=O)CCC(=O)NCCCCCN(O)C(=O)CCC(=O)NCCCCCN(O)C(C)=O)c(=O)c1=O)C(=O)O)C(C)C [zirconium-89 labelled]	–	gamma counting	rat, skin of neck	subcutaneous, 3 nmol/kg, 168 h	–	tissue uptake	0.1 %ID/g
COc1cc(Nc2ncc(F)c(Nc3ccc4c(n3)NC(=O)C(C)(C)O4)n2)cc(OC)c1OC	Neuropeptide Y receptor type 2 (NPY2R, Homo sapiens, UniProt P49146)	–	–	–	–	IC50	> 10 µM
